# Assay results from different studies.
# Each numbered part is a random draw from the data of one study; scales do not carry over between parts. Several values in a cell are separate wells, animals, samples, runs or records.
# Sequence of UniProt P41279 (whole entry, looked up): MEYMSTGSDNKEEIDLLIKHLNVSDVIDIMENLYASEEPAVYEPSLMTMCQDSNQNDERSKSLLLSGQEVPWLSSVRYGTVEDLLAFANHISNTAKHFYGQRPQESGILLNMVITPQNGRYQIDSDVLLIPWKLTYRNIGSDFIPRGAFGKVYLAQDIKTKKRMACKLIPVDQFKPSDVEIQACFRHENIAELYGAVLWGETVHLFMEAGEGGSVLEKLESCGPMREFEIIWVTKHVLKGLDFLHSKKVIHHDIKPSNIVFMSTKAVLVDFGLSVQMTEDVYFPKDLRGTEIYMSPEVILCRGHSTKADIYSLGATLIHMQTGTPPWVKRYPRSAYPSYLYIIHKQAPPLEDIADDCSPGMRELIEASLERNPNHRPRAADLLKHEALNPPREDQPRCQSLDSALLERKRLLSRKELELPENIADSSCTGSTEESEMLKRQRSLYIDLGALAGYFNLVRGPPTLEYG
# Sequence of UniProt Q09013 (whole entry, looked up): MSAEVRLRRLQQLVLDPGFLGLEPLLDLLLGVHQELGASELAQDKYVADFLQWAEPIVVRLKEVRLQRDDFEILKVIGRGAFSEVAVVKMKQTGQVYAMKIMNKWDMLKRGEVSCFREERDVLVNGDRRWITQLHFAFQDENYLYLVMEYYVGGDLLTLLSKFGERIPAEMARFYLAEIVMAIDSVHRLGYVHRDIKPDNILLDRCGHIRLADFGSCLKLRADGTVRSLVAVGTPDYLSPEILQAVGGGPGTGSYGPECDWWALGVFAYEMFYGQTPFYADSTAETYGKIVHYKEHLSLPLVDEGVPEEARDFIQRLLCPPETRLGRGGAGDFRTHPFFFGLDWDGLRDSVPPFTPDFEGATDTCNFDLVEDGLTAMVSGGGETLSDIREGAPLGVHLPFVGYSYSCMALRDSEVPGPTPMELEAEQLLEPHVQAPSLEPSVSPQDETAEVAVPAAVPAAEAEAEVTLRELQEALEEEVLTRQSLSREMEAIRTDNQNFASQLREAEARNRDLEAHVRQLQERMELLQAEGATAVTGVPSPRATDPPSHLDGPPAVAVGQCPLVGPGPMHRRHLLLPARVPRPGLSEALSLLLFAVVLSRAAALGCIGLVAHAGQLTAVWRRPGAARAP
# Sequence of UniProt P50613 (whole entry, looked up): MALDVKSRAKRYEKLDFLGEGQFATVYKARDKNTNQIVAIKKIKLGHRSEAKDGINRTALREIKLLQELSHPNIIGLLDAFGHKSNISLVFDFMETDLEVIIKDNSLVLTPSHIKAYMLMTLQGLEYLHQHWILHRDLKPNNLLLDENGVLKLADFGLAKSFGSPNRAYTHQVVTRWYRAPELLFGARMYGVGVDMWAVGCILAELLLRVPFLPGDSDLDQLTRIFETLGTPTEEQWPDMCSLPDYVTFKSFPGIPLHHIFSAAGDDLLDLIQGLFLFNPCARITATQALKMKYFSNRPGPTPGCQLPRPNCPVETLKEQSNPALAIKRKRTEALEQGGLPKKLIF
# Sequence of UniProt Q8TD19 (whole entry, looked up): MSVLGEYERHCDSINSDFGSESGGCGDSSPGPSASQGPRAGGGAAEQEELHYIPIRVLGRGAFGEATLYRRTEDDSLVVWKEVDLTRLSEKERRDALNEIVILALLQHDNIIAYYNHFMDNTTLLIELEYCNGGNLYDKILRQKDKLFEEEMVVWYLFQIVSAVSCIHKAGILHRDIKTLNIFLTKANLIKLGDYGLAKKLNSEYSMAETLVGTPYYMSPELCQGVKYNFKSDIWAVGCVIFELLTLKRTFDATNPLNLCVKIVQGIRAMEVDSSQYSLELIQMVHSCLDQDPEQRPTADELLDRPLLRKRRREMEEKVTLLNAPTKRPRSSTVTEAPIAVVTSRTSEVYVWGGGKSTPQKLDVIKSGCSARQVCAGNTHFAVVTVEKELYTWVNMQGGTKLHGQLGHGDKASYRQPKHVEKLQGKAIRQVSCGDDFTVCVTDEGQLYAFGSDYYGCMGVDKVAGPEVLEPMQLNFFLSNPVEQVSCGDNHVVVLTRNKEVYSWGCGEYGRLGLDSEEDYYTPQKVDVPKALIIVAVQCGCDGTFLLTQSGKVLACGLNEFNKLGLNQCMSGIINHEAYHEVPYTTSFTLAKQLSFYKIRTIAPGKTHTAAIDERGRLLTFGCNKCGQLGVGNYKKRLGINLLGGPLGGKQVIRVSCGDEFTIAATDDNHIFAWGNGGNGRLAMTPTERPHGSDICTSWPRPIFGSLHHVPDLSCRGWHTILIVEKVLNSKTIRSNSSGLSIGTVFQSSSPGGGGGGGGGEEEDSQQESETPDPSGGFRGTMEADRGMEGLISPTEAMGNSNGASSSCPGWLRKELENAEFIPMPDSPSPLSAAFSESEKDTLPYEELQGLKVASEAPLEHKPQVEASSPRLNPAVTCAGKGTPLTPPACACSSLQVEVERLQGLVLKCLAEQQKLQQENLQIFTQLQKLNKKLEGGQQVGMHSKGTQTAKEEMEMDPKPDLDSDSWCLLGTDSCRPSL
# Sequence of UniProt O14965 (whole entry, looked up): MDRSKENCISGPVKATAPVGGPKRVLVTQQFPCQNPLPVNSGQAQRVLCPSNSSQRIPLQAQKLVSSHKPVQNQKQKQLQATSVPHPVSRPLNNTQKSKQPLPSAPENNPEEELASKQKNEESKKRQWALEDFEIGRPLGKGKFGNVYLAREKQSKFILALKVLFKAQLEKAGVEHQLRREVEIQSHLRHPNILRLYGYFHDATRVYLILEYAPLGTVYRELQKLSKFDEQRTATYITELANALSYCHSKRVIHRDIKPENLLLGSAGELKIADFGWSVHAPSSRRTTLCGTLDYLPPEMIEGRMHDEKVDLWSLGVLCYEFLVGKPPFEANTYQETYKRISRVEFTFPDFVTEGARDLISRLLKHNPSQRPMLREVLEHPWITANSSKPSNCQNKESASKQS
# Sequence of UniProt P07949 (whole entry, looked up): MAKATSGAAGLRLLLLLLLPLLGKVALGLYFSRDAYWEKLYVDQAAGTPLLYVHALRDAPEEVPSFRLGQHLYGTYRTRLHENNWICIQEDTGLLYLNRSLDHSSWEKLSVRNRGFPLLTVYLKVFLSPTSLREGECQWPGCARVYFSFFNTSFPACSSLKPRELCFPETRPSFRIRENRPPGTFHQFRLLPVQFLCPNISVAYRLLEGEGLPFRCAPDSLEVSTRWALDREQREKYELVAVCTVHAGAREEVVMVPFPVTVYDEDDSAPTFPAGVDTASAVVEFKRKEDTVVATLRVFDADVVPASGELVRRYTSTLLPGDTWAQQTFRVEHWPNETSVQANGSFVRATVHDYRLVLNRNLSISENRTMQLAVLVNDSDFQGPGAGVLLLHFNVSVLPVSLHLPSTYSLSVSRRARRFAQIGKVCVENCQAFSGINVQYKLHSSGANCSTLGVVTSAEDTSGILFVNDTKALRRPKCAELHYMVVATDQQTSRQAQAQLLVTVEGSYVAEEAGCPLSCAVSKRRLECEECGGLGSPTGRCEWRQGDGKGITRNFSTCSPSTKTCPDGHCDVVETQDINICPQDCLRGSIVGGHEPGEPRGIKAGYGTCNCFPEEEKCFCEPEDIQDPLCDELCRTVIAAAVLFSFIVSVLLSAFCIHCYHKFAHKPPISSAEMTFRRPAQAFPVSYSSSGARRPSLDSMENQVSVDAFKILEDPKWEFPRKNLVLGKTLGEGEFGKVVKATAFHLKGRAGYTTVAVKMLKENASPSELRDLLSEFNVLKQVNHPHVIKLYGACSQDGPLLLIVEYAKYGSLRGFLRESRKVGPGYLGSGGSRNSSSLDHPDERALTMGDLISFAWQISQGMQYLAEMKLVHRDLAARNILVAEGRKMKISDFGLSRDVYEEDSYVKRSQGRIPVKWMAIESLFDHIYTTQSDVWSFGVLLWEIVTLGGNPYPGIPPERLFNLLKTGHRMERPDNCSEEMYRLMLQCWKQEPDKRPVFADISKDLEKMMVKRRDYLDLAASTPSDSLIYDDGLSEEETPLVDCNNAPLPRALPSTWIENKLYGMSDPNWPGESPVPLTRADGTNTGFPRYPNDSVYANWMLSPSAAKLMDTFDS
# Sequence of UniProt Q96NX5 (whole entry, looked up): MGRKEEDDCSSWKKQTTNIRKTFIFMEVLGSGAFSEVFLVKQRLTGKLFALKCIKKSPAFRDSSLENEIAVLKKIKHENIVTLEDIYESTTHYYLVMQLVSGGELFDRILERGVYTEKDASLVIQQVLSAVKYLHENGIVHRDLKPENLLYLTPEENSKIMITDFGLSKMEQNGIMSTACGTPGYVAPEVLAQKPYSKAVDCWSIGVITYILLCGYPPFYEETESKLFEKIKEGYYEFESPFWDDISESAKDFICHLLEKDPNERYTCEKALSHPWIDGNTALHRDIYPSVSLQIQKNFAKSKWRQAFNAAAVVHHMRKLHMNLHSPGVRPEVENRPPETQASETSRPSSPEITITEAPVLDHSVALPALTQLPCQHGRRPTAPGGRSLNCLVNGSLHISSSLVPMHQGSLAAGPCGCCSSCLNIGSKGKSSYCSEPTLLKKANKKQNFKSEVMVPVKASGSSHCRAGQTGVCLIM
# Sequence of UniProt Q9NR20 (whole entry, looked up): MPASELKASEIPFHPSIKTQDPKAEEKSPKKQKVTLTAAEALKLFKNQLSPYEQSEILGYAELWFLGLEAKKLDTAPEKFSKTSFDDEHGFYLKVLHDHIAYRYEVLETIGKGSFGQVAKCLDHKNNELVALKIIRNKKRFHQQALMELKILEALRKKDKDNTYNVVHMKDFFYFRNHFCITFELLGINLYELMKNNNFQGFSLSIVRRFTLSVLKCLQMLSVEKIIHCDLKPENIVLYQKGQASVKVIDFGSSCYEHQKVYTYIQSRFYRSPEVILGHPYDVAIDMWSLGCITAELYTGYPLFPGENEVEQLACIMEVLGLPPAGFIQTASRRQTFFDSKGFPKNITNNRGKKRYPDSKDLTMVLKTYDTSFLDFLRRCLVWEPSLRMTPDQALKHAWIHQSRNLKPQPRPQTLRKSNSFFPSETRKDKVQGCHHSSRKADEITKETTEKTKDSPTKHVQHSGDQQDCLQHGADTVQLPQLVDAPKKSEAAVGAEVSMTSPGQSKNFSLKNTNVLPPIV

# Series 1
# Cell line: mouse MPNST tumor cells
# Method: high-content immunofluorescence imaging
# Refers to: nuclear SOX9
# Concentration: 10 µM
# Time: 12 h
# Notes: mean of 2 replicates
# Reference: DMSO control
# Direction: higher = more nuclear SOX9
Compound,nuclear SOX9 intensity
CC(C(=O)O)c1cccc(Oc2ccccc2)c1 (stereo not shown),94.8 % of DMSO and 92.8 % of DMSO
CCCCCS(=O)(=O)CCCCCCCCCCn1c(-c2ccc(O)cc2)c(C)c2cc(O)ccc21,146 % of DMSO
CNc1cc(OC)c(C(=O)NC2CCN(Cc3ccccc3)C2C)cc1Cl (stereo not shown),108 % of DMSO
CCC(NC(C)C)C(O)c1ccc(O)c2[nH]c(=O)ccc12 (stereo not shown),101 % of DMSO
NC(=O)c1noc([C@H](CCCC2CCCCC2)CC(=O)NO)n1,107 % of DMSO
CCN(CC)CC(=O)Nc1c(C)cccc1C,106 % of DMSO
CC1(C)S[C@@H]2[C@H](NC(=O)[C@H](N)c3ccccc3)C(=O)N2[C@H]1C(=O)O,98.1 % of DMSO
c1cc(CN2CCCNCCNCCCNCC2)ccc1CN1CCCNCCNCCCNCC1,105 % of DMSO
OC(c1ccccc1)C1CCN(CCc2ccccc2)CC1 (stereo not shown),114 % of DMSO
COC(=O)CCc1ccc(OCC(O)CNC(C)C)cc1 (stereo not shown),105 % of DMSO
OC(Cn1cncn1)(Cn1cncn1)c1ccc(F)cc1F,92.9 % of DMSO
COc1ccc(OC)c(C2C(C#N)=C(N)Oc3n[nH]c(-c4ccc5ccccc5c4)c32)c1 (stereo not shown),100 % of DMSO
CC(C)(C)c1ccc(OC2CCCCC2O)cc1 (stereo not shown),99.5 % of DMSO
COc1ccc(C2(CNC(=O)c3ccc(NC(=O)c4ccco4)cc3)CCOCC2)cc1,86.8 % of DMSO
CC(=O)N(CC(O)CO)c1c(I)c(C(=O)NCC(O)CO)c(I)c(C(=O)NCC(O)CO)c1I (stereo not shown),94.3 % of DMSO
S=P(N1CC1)(N1CC1)N1CC1,107 % of DMSO
CCCCCCN(CCCCCC)C(=O)Cc1c(-c2ccc(F)cc2)[nH]c2ccccc12,137 % of DMSO

# Series 2
# Host: mouse
# Medium: microsomes or S9
# Concentration: 2 µM
# Time: 0.5 h
Structure (SMILES),remaining compound [%]
CC1=CC[C@@H]2CN(C(=O)c3sc(C(C)C)nc3C)C[C@@H]2C1,1.34
CCC(C)NC(=O)Cn1nc(C(=O)N2CCCC2)ccc1=O (stereo not shown),57.1
O=S(=O)(NCC(c1ccco1)S(=O)(=O)c1cccs1)c1ccc2c(c1)CCCC2 (stereo not shown),3.29
Cc1ccc(S(=O)(=O)c2c(O)c3sc4cccc(Cl)c4c3[nH]c2=O)cc1,1.54
O=C(NOCc1ccccc1)c1ccc2c(c1)NC(CCNS(=O)(=O)c1ccc(F)cc1)C(=O)N2 (stereo not shown),60.8
CCOc1ccc(C2=NNC(c3cccnc3)=Nc3ccc(CC)cc32)cc1OCC,11.7
Cc1cc(C)c(NS(=O)(=O)c2cnc(O)[nH]c2=O)c(C)c1,> 100
CCn1cc(C(=O)NCCNC(=O)c2cn(CC)nc2C)c(C)n1,89.2
Cc1cc(C)cc(OC(C)C(=O)NCCN(C)C)c1 (stereo not shown),59.5
O=S(=O)(c1ccccc1)c1nc(-c2ccccc2)oc1NCC1CCCO1 (stereo not shown),1.72
COc1ccc2[nH]cc(CCn3c(N)cc(=O)[nH]c3=O)c2c1,64.7
CCOc1cc2c(-c3ccccc3)c(C)oc2cc1C(=O)c1ccccc1,6.04
O=C(O[C@@H]1Cc2c(O)cc(O)cc2O[C@@H]1c1ccc(O)c(O)c1)c1cc(O)c(O)c(O)c1,37
O=C1CCc2cc(C(=O)N3CCc4sc(Br)cc4C3)c(F)cc2N1,25.7

# Series 3
# Compound: CC(C)(C)n1nc(Cc2cccc3ccccc23)c2c(N)ncnc21
# Effect on: enzyme activity
# Mode: inhibitor
# Concentration: 0.5 µM
# Reference: control
target,remaining activity [%]
"GRK5 (Homo sapiens, UniProt P34947)",98.7
"NTRK3 (Homo sapiens, UniProt Q16288)",92.8
"Aurora kinase A (AURKA, Homo sapiens, UniProt O14965)",98.6
"PKN2 (Homo sapiens, UniProt Q16513)",106
"CDK7 (Homo sapiens, UniProt P50613)",100
"NEK9 (Homo sapiens, UniProt Q8TD19)",105
"CAMK1G (Homo sapiens, UniProt Q96NX5)",104
"PTK2B (Homo sapiens, UniProt Q14289)",106
"Cyclin-dependent kinase 2, with cyclin A (CDK2, Homo sapiens, UniProt P24941)",99.4
"ROCK2 (Homo sapiens, UniProt O75116)",95.6
"ROS1 (Homo sapiens, UniProt P08922)",87.9
"EGFR (Homo sapiens, UniProt P00533)",67.8
"RET (Homo sapiens, UniProt P07949)",25.5
"HIPK3 (Homo sapiens, UniProt Q9H422)",96.6
"DMPK (Homo sapiens, UniProt Q09013)",93.2
"MAP3K8 (Homo sapiens, UniProt P41279)",94.2
"DYRK4 (Homo sapiens, UniProt Q9NR20)",98.5
"CAMK1D (Homo sapiens, UniProt Q8IU85)",105
"BRSK1 (Homo sapiens, UniProt Q8TDC3)",90.4
"PRKD1 (Homo sapiens, UniProt Q15139)",26.2
"SLK (Homo sapiens, UniProt Q9H2G2)",94.9
"MAP3K2 (Homo sapiens, UniProt Q9Y2U5)",87.8
"MAPK10 (Homo sapiens, UniProt P53779)",106

# Further values, each from its own experiment
Compound,cell line,method,concentration,time,endpoint,result
Cn1cncc1[C@@](O)(COc1ccc(C#N)cc1-c1ccc(OC(F)(F)F)cc1)c1ccc(C#N)cc1,HEK293T,high-content imaging,10 µM,12 h,pyknotic nuclei,30.2% and 51.1%

# A few entries again (series 3):
target,remaining activity [%]
"NEK9 (Homo sapiens, UniProt Q8TD19)",105
"CAMK1G (Homo sapiens, UniProt Q96NX5)",104
"PTK2B (Homo sapiens, UniProt Q14289)",106
"Cyclin-dependent kinase 2, with cyclin A (CDK2, Homo sapiens, UniProt P24941)",99.4
"ROCK2 (Homo sapiens, UniProt O75116)",95.6
"ROS1 (Homo sapiens, UniProt P08922)",87.9
"EGFR (Homo sapiens, UniProt P00533)",67.8
"RET (Homo sapiens, UniProt P07949)",25.5
